# Measured values collected from several papers.
# Each line is one published result; not all experiments were run side by side. “And” joins repeats or separate records; there may be more than shown. Numbers after ± are the reported error. Where no end group is shown, it is not given here.
# B1: disulfide; chain RTCESKSHRFKGLCLSETNCKNVCHNEGFGGGNCRGARRRCFCTRHC (disulfide (positions not given here))
Molecule,target or system,test,system,setting,how to read,endpoint,result
Polymyxin B,Acinetobacter baumannii,"broth microdilution, MH medium",carbapenem-resistant CCARM 12004,"16 h, 37 °C",,MIC,4 µM
glucagon,,isotope dilution,"human, non-diabetic","intravenous infusion, 0.12 ng/kg/min, 160 to 180 min",,splanchnic extraction,23.8 ± 2.6%
aspterric acid,Arabidopsis thaliana,root length,"Col-0, seedlings","50 µg/mL, with BCAA",,inhibition,25.4%
colistin,Pseudomonas aeruginosa,,"GFP-expressing, RPMI with 10% FBS","18 to 24 h, 37 °C",,MIC,0.98 µM
HVLVMSATRR,,,"peptide, C57BL/6J mice, male, serum","subcutaneous osmotic pump, 3 mg/kg/day peptide basis, 8 weeks",,triglycerides,114 mg/dL and 86 mg/dL and 119 mg/dL and 75 mg/dL
tunicamycin,Enterococcus faecium,EUCAST broth microdilution,ATCC 51559 MDR VRE,"18-24 h, 37 °C",,MIC,64 µg/mL
DAPT,Enterococcus faecalis,,ATCC 51575 vancomycin-resistant,,,MIC,12.5 µg/mL
polymyxin B,Neisseria gonorrhoeae,broth dilution,CDC-FDA AR Bank #0187,,,MIC,188 µg/mL
Polymyxin B,Helicobacter pylori,broth microdilution,"SS1, BHI broth, 7% FBS","48 h, 37 °C, microaerobic",,MIC,2 µg/mL
thiostrepton,Enterococcus faecium,,VanA vancomycin-resistant,,,MIC,0.06 µg/mL
heparin sodium,,,healthy Chinese adult volunteers,"continuous intravenous infusion, 8 IU/kg/h, 5 days",,subjects with serious AEs,0%
colistin,Staphylococcus aureus,,USA300,"combination, median and range, added: OA 32 µg/mL",,MIC,128 µg/mL
Polymyxin B,Klebsiella pneumoniae,broth microdilution,KPC-25 producing,,,MIC,32 µg/mL
Polymyxin B,,,mouse,"intraperitoneal, 40 mg/kg single dose, day 5",,survival,0%
nonaarginine,PorA peptide pore,"peptide binding, planar bilayer single-channel recording",,"pH 7.4, -15 mV, cis side, 150 mM KCl",,Kd,1110 ± 100 nM
colistin sulfate,Pseudomonas aeruginosa,broth microdilution,C5 clinical isolate,,,MIC,6.8 µM
colistin,Pseudomonas aeruginosa,,1188712 multidrug-resistant,,,MIC,1 µg/mL
B1,Botrytis cinerea,fungal growth,,,,MIC,≤ 0.38 µM
insulin human,,refers to: GCLM,"mouse, EcoHIV-infected, brain","ip, dose not given, added: insulin",relative to: PBS-treated,mRNA fold change,1.12
Teicoplanin A2-2,Enterococcus faecium,,vancomycin-susceptible,,,MIC,0.5 µg/mL
colistin,Klebsiella pneumoniae,broth microdilution,"OmpK36-truncated, KPC-2",,,MIC,32 µg/mL
ceftiofur sodium,Staphylococcus aureus,,USA300,"alone, median and range",,MIC,16 µg/mL

# Excerpt of the above:
Molecule,target or system,test,system,setting,how to read,endpoint,result
colistin,Pseudomonas aeruginosa,,"GFP-expressing, RPMI with 10% FBS","18 to 24 h, 37 °C",,MIC,0.98 µM
